Published values gathered from unrelated publications.
Each line is one published result; not all experiments were run side by side. Several values in a cell are separate wells, animals, samples, runs or records. Numbers after ± are the reported error.
P4HB: Protein disulfide-isomerase (P4HB, Homo sapiens, UniProt P07237)
Chain of UniProt P07237 (whole entry, looked up): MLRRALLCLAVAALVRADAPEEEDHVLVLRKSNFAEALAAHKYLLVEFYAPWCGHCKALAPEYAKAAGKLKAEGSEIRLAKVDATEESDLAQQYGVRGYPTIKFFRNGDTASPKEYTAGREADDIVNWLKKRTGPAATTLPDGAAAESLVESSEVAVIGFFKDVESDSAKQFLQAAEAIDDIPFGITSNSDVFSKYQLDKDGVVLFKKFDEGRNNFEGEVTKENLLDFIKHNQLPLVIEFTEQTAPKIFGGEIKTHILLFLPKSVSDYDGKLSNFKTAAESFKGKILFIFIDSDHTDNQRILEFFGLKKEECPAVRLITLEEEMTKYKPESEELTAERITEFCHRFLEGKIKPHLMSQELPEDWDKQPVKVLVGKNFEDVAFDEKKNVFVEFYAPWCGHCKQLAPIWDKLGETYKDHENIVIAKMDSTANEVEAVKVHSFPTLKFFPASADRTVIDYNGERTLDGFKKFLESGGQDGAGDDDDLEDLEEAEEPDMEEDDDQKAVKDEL
AR: Androgen receptor (AR, Homo sapiens, UniProt P10275)
Chain of UniProt P10275 (whole entry, looked up): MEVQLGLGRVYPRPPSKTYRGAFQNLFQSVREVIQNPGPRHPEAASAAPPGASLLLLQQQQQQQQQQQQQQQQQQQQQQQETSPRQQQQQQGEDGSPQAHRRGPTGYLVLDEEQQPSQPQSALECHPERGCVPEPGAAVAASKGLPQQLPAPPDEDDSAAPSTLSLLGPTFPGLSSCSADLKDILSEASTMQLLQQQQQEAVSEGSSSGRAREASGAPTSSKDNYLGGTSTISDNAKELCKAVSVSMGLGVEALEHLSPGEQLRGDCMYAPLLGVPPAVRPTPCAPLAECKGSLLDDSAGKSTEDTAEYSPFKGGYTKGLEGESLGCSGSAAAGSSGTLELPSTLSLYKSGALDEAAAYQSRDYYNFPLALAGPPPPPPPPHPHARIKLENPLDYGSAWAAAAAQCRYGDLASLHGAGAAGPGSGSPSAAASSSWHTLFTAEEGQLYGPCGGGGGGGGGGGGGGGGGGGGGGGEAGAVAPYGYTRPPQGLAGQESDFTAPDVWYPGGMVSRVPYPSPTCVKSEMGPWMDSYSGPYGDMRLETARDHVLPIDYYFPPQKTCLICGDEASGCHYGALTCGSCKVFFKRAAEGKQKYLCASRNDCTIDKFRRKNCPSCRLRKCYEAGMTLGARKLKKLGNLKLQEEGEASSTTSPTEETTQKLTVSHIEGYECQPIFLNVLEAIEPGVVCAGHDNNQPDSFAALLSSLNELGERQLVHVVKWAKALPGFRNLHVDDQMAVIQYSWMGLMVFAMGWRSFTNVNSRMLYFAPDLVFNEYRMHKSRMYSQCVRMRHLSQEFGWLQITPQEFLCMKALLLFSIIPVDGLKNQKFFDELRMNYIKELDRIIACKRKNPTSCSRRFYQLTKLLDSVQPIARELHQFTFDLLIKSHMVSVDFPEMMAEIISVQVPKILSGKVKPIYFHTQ
HDAC6: Protein deacetylase HDAC6 (HDAC6, Homo sapiens, UniProt Q9UBN7)
Chain of UniProt Q9UBN7 (whole entry, looked up): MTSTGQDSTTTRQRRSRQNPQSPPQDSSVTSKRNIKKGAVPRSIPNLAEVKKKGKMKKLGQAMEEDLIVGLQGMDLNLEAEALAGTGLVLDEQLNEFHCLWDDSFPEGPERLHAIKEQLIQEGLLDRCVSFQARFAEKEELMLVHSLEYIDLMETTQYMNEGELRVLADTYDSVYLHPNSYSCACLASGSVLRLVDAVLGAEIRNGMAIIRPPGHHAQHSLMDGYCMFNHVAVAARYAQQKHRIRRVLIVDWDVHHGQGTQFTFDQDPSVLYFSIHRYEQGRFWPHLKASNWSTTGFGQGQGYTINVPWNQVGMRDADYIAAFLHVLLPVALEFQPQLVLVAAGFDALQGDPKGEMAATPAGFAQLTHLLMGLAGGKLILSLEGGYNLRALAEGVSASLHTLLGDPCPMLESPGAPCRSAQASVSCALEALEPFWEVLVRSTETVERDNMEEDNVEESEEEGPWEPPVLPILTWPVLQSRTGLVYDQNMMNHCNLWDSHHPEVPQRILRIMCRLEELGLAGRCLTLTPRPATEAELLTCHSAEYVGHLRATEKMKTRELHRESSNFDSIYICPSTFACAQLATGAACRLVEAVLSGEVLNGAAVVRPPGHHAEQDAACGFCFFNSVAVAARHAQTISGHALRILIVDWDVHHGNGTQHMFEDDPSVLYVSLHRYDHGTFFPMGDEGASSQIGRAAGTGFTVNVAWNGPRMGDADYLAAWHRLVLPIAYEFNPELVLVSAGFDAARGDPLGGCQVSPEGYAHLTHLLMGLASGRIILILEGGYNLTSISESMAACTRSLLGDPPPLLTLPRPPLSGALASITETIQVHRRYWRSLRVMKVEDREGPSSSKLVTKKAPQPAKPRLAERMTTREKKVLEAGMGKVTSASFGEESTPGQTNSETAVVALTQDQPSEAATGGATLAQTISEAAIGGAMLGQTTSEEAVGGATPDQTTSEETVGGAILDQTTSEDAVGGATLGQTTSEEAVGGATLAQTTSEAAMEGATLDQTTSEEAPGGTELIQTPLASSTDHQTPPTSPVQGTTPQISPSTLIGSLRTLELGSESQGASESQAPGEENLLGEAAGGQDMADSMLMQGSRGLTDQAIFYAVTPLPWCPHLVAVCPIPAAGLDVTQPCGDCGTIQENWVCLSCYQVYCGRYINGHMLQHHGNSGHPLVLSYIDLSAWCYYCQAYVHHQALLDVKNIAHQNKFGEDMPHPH
CPL: CPL (Toxoplasma gondii, UniProt Q6DMN0)
HDAC8: Histone deacetylase 8 (HDAC8, Homo sapiens, UniProt Q9BY41)
Chain of UniProt Q9BY41 (whole entry, looked up): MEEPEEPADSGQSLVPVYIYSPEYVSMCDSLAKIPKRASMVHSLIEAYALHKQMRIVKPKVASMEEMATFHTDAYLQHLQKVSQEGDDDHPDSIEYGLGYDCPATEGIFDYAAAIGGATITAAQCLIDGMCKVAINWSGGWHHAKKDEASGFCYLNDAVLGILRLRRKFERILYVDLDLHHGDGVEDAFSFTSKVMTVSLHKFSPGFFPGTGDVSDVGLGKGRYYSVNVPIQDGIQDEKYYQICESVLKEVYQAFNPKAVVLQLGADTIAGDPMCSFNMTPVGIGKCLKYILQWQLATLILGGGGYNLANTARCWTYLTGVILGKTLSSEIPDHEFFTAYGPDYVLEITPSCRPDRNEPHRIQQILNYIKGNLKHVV
Chain of UniProt P00374 (whole entry, looked up): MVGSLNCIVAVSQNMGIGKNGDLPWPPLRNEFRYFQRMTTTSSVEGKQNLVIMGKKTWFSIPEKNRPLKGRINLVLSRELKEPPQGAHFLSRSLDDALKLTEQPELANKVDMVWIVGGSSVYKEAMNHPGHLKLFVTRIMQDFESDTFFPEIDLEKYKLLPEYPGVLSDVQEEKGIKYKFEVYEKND
Chain of UniProt O43613 (whole entry, looked up): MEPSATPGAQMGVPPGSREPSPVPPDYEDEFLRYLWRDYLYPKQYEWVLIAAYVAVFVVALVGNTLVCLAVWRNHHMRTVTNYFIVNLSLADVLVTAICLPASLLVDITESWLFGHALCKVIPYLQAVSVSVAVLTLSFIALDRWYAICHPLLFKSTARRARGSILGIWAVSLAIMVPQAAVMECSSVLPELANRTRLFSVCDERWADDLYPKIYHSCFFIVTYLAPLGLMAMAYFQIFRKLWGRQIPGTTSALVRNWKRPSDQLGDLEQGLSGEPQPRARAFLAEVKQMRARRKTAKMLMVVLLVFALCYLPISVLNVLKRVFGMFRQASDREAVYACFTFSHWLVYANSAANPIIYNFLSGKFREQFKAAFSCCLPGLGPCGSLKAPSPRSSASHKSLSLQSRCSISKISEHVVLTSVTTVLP
Chain of UniProt P19256 (whole entry, looked up): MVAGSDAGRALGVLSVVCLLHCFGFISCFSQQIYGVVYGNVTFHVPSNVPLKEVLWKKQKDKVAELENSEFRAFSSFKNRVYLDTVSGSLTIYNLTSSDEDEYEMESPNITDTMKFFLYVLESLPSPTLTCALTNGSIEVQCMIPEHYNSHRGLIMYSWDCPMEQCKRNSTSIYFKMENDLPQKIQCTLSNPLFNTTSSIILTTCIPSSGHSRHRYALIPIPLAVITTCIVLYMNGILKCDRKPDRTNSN
Chain of UniProt Q8BH61 (whole entry, looked up): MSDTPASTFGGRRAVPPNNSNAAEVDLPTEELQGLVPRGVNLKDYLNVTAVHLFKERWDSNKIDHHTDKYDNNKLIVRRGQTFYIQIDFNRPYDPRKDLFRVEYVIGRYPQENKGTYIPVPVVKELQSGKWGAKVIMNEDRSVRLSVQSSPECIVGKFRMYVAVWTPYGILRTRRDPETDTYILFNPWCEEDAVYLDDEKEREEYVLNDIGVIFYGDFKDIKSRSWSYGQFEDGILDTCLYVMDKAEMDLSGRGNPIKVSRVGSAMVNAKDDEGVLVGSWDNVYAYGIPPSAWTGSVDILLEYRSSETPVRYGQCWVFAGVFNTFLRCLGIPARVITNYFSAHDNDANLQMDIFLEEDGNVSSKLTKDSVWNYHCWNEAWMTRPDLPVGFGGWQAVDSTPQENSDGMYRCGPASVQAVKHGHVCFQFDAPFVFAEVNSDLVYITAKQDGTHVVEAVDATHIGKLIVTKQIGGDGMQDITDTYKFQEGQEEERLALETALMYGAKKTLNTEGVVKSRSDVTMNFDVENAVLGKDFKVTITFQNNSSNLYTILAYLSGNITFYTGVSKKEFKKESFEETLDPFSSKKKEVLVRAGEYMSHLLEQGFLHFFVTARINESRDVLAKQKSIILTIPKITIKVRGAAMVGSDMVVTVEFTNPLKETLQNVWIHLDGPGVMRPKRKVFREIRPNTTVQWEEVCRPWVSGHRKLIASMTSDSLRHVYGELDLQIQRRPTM
Chain of UniProt Q923Y9 (whole entry, looked up): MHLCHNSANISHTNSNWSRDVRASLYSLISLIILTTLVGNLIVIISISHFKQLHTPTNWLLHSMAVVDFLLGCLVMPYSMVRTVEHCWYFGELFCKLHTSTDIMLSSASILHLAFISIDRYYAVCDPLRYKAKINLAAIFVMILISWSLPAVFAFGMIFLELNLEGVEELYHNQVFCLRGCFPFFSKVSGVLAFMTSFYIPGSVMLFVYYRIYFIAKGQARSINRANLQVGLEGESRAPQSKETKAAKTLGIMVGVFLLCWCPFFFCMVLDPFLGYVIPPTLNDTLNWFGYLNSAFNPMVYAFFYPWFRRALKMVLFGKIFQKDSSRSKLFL

Compound	target	assay	system	conditions	IC50
C[C@@H]1NC(=O)[C@H](C)NC(=O)[C@@H]2CSSC[C@H](NC(=O)[C@H](CO)NC(=O)CNC1=O)C(=O)N[C@@H](CCCCN)C(=O)N[C@H]1CSSC[C@H](NC(=O)[C@H](CCCCN)NC(=O)[C@@H]3CSSC[C@H](NC(=O)[C@H](CO)NC1=O)C(=O)N[C@@H](Cc1ccc(O)cc1)C(=O)NCC(=O)N[C@@H](CC(=O)O)C(=O)N[C@@H](CC(=O)O)C(=O)N3)C(=O)N[C@@H](CCC(=O)O)C(=O)N2	Lymphocyte function-associated antigen 3, with CD2 (CD58, Homo sapiens, UniProt P19256)		human cells		> 50 µM
C=CCOC(=O)NCCCC[C@H](NC(=O)[C@H](Cc1ccc(O)cc1)NC(=O)CNC(=O)CNC(=O)[C@@H](NC(=O)[C@H](CO)NC(=O)[C@@H]1CCCN1C(=O)[C@H](C)NC(=O)[C@H](CO)NC(=O)[C@H](CCCC)NC(=O)[C@H](CCCNC(=N)N)NC(=O)[C@H](C)NC(=O)[C@H](C)NC(=O)[C@H](CCCCN)NC(C)=O)[C@@H](C)O)C(=O)NN	Histone-lysine N-methyltransferase EZH2 (EZH2, Homo sapiens, UniProt Q15910)	enzyme activity, inhibitor, radiometric			3.3 µM
COC(=O)C1CN1S(=O)(=O)c1ccc(F)cc1F (stereo not shown)	P4HB	enzyme activity, inhibitor, absorbance		pH 7.6	5.2 µM
NNC(=O)c1ccc(-n2nc(-c3ccccc3O)nc2-c2ccccc2O)cc1	Prostaglandin G/H synthase 2 (PTGS2, Homo sapiens, UniProt P35354)	enzyme activity, inhibitor			0.94 µM
CC(C)C[C@H](NC(=O)[C@H](CC(C)C)NC(=O)[C@H](Cc1c[nH]cn1)NC(=O)CNC(=O)[C@@H](NC(=O)[C@H](C)NC(=O)[C@H](Cc1c[nH]c2ccccc12)NC(=O)[C@H](CCC(N)=O)NC(=O)[C@H](CC(N)=O)NC(=O)CNC(=O)[C@H](CC(C)C)NC(=O)[C@H](CCCNC(=N)N)NC(=O)[C@H](CCC(N)=O)NC(=O)[C@@H]1CCC(=O)N1)C(C)C)C(N)=O	Bombesin receptor subtype-3 (BRS3, Homo sapiens, UniProt P32247)	human GRPR activity, cell-based			> 3 µM
CCCCCCc1ccc(Nc2ccccc2C(=O)O)cc1	AR	reporter gene, antagonist, MMTV-Luc reporter	MDA-kb2	20 h, added: 8 nM DHT (EC90)	77.2 ± 17.7 µM
CCOC(=O)c1cnc(N2CC[C@@H](NC(=O)c3[nH]c(C)c(Cl)c3Cl)[C@@H](OC)C2)o1	DNA gyrase subunit B (Staphylococcus aureus, UniProt P0A0K8)	enzyme activity			> 10 µM
O=C(O)c1ccccc1Nc1ccc(Oc2ccccc2)cc1	AR	reporter gene, antagonist, MMTV-Luc reporter	MDA-kb2	20 h, added: 0.2 nM DHT (EC50)	0.9 ± 0.3 µM
COC(=O)C=CCCC(NC(=O)c1ccncc1C(=O)O)C(=O)NC(C(=O)N1CC(=O)CC1C(=O)NC(C(=O)NC(C(N)=O)C1CCCCC1)C1CCCCC1)C(C)(C)C (stereo not shown)	Coagulation factor XIII A chain (Mouse, UniProt Q8BH61)	transamidation activity, inhibitor		mouse enzyme, added: dansylcadaverine into N,N-dimethylcasein	0.015 ± 0.0012 µM
O=C(CCCCCCC(=O)Nc1ccc(N=Nc2ccccc2)cc1)NO	HDAC6	enzyme activity, inhibitor		trans isomer	0.01 ± 0.002 µM
N#Cc1nc(N2CCOCC2)nc(N(CCC2CCNCC2)Cc2ccc(F)cc2)n1	CPL	enzyme activity, inhibitor, Z-L-R-AMC hydrolysis fluorescence			0.326 µM
C#CCSc1nc(Sc2nnnn2-c2ccccc2)c2nnn(Cc3ccccc3)c2n1	Lysine-specific histone demethylase 1A (KDM1A, Homo sapiens, UniProt O60341)	enzyme activity, inhibitor, fluorescence			0.15 µM
C[C@H]1Oc2c(c(=O)oc3c2ccc2ccccc23)[C@@H]1C	Tyrosine-protein kinase SYK (SYK, Homo sapiens, UniProt P43405)	enzyme activity, inhibitor, ADP detection			46 µM
CC[C@H](C)[C@@H]1NC(=O)[C@H](CC(N)=O)NC(=O)[C@H](Cc2ccc(O)cc2)NC(=O)[C@H](Cc2c[nH]c3ccccc23)NC(=O)[C@H](C)NC(=O)[C@@H](N)CSSC[C@@H]2NC(=O)[C@@H](CSC[C@@H](C(=O)N[C@H]3C(=O)N[C@@H](CC(C)C)C(=O)N[C@H]4C(=O)N[C@@H](C(C)C)C(=O)N[C@@H](CCC(=O)O)C(=O)N[C@@H](CS[C@H]3C)C(=O)N[C@@H](CCSC)C(=O)N3CCC[C@H]3C(=O)N[C@@H](CO)C(=O)N[C@H](C(=O)N[C@@H](CC(N)=O)C(=O)O)CS[C@H]4C)NC(=O)[C@H](Cc3ccc(O)cc3)NC(=O)[C@H](C)NC(=O)CNC(=O)[C@H](CCCCN)NC(=O)[C@H](CC(N)=O)NC(=O)CNC(=O)[C@H](CC(C)C)NC(=O)[C@H](CCCNC(=N)N)NC2=O)NC1=O	PBP1b (Escherichia coli)	transglycosylase activity, inhibitor		added: lipid II 4 µM	9.6 ± 0.4 µM
Fc1ncc(C2CC3CCC2N3)cc1-c1ccnc(Cl)c1 (racemic)	Neuronal acetylcholine receptor subunit alpha-7 (Chrna7, Rattus norvegicus, UniProt Q05941)	ion current, two-electrode voltage clamp		oocytes	56 µM
CC[C@@H]1NC(=O)[C@H](CCCNC(=N)N)NC(=O)[C@H](NC(=O)C(C)C)CCNC(=O)c2cc(F)c(c(F)c2)N=Nc2c(F)cc(cc2F)C(=O)NCCNC(=O)[C@@H](Cc2ccccc2)NC1=O	WD repeat-containing protein 5, MLL1 complex (WDR5, Homo sapiens, UniProt P61964)	histone methyltransferase activity		trans PSS at 405 nm	9.2 ± 3.04 µM
C[C@@H]1CCN(c2nc3ccc(Cl)cc3o2)CCN1S(=O)(=O)c1ccc2c(c1)OCCO2	Orexin/Hypocretin receptor type 1 (HCRTR1, Homo sapiens, UniProt O43613)	calcium signal, antagonist, fluorescence			0.2 µM
Cc1ccccc1CN(CCC(C)C)c1nc(C#N)nc(N2CCOCC2)n1	CPL	enzyme activity, inhibitor, Z-L-R-AMC hydrolysis fluorescence			0.107 µM
CC(C)C[C@H](NC(=O)OCc1ccccc1)C(=O)N[C@H](C=O)C[C@H]1CCNC1=O	Genome polyprotein, 3C protease (Human enterovirus D68, UniProt Q68T42)	3C protease activity, inhibitor, FRET			0.17 ± 0.02 µM

Compound	target	assay	system	conditions	IC50
COc1ccc(F)cc1S(=O)(=O)Nc1cnc2c(c1)C(=O)NCCO2	Alkaline phosphatase, placental type (Homo sapiens, UniProt P05187)	enzyme activity, inhibitor, absorbance		pH 7.5	3.51 µM
N#Cc1c(C(F)(F)F)cc(-c2ccc(Cl)cc2)nc1SCC(=O)Nc1ccccn1	Trace amine-associated receptor 1 (Rattus norvegicus, UniProt Q923Y9)				2.25 ± 0.58 µM
Cc1cccc(C(c2c(C)[nH]c3ccccc23)C(C#N)C#N)c1 (stereo not shown)	Cocaine esterase (CES2, Homo sapiens, UniProt O00748)	enzyme activity, inhibitor	human liver microsomes	pH 7.4, 37 °C, added: fluorescein diacetate	4.12 ± 0.84 µM
CC(C)(C)n1ccc(C(=O)N2CCCN(c3nc4ccccc4s3)CC2)c1	hh, C-terminal autoprocessing domain (Drosophila melanogaster, UniProt Q02936)	inhibitor, FRET		added: C-H-Y reporter 0.1 µM and cholesterol 1.5 µM	1.2 µM
CC[C@@H]1C(=O)N(C)c2cnc(Nc3ccc(C(=O)NCCCC[C@H](NC(=O)COCCOCCNC(=O)COCCOCCNC(=O)COCCOCCNC(=O)COCCOCCNC(=O)[C@@H](NC(=O)[C@H](CO)NC(=O)[C@H](Cc4cncn4CCCCCCCCc4ccccc4)NC(=O)[C@H](CC(C)C)NC(=O)[C@@H]4CCCN4C(C)=O)[C@@H](C)OP(=O)(O)O)C(N)=O)cc3OC)nc2N1C1CCCC1	Calcium/calmodulin-dependent protein kinase kinase 2 (CAMKK2, Homo sapiens, UniProt Q96RR4)	enzyme activity, inhibitor			0.17 µM
CC[C@@H]1CN2CCc3c([nH]c4cccc(OC)c34)[C@@H]2C[C@@H]1/C(=C\OC)C(=O)OC	UDP-glucuronosyltransferase 1A1 (UGT1A1, Homo sapiens, UniProt P22309)	enzyme activity, inhibitor		2 h, pH 7.4	> 100 µM
N#Cc1nc(N2CCOCC2)nc(N(Cc2ccccc2[N+](=O)[O-])CC2CCCNC2)n1 (stereo not shown)	CPL	enzyme activity, inhibitor, Z-L-R-AMC hydrolysis fluorescence			3.97 µM
COc1cc(/N=N/C(C#N)C#N)cc(OC)c1OC	Mycosin-1 (Mycolicibacterium thermoresistibile, UniProt G7CDQ2)	enzyme activity, inhibitor			95 µM
COc1ccc(N=Nc2cccc(NC(=O)CCCCCCC(=O)NO)c2)cc1	HDAC8	enzyme activity, inhibitor		cis isomer, irradiated	0.445 ± 0.107 µM
COc1cc(-c2nn(C3CCC(N4CCN(C)CC4)CC3)c3ncnc(N)c23)ccc1NC(=O)OCc1ccccc1 (stereo not shown)	LIM domain kinase 1 (LIMK1, Homo sapiens, UniProt P53667)	enzyme activity, inhibitor			0.88 µM
CC(C)CCN(Cc1ccccc1C#N)c1nc(C#N)nc(N2CCOCC2)n1	CPL	enzyme activity, inhibitor, Z-L-R-AMC hydrolysis fluorescence			0.105 µM
C=CC[C@](C)(NC(=O)[C@H](CC(C)C)NC(=O)[C@H](CCCCN)NC(=O)[C@H](CC(C)C)NC(=O)[C@](C)(CC=C)NC(=O)[C@H](Cc1ccccc1)NC(=O)[C@H](Cc1ccc(O)cc1)NC(=O)[C@H](C)NC(=O)[C@@H](N)[C@@H](C)O)C(=O)NCC(=O)N[C@@H](CCCNC(=N)N)C(=O)N[C@@H](Cc1c[nH]c2ccccc12)C(N)=O	Gag-Pol polyprotein, integrase (gag-pol, Human immunodeficiency virus type 1 group M subtype B, UniProt P04585)	integrase 3'-processing, inhibitor			> 333 µM
NC1=NC2(CCCCC2)N(c2ccc(OCc3cn(CCCCOc4ccc(CCC(=O)O)c(O)c4)nn3)cc2)C(N)=N1	Dihydrofolate reductase (DHFR, Homo sapiens, UniProt P00374)	enzyme activity, inhibitor			1.73 µM and 1.7 µM
COC(=O)C1CN1S(=O)(=O)c1ccccc1 (stereo not shown)	P4HB	enzyme activity, inhibitor, absorbance		pH 7.6	5.8 µM and 6 µM
O=C(CS)NCCCCCNC(=O)c1ccccc1	HDAC8	enzyme activity, inhibitor			7.53 µM
CC[C@H](C)[C@H](NC(=O)[C@@H](N)CC(=O)O)C(=O)N[C@H]1CSC(=O)[C@H](Cc2ccccc2)NC(=O)[C@H](Cc2ccc(O)cc2)NC(=O)[C@H](C)NC(=O)[C@H](CC(N)=O)NC1=O	Accessory gene regulator protein C (Staphylococcus aureus, UniProt O33590)				0.0366 µM
C=CCCNC(=O)[C@H](CO)NC(=O)[C@H](CC(C)C)NC(=O)CN(CC=C)C(=O)[C@H](CCC(N)=O)NC(=O)[C@H](Cc1ccc(OP(=O)(O)O)cc1)NC(C)=O	SHC-transforming protein 1, SH2 (Homo sapiens, UniProt P29353)	ligand displacement, FP			8 µM
O=C(Nc1ccccc1)c1ccccc1O	HDAC6	enzyme activity, inhibitor, fluorescence			> 10 µM
